Measured values of several laboratories.
Every numbered part comes from another study and shows a few of its results, in no order.

Series 1 — technique: RNA Bind-n-Seq; form: RNA; matrix: in vitro; tested at: 365 nM; reference: no-protein control; direction: higher = stronger binding
Target: RNA binding protein fox-1 homolog 2, RRM domain, GST-SBP tag (RBFOX2, Homo sapiens, UniProt O43251-10, residues 100-194)
Setting: natural RNA segment, single round, ends assumed
Target sequence (chain): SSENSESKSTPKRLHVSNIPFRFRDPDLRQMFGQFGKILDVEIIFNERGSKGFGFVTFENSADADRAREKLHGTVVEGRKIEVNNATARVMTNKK
Strand	RBNS enrichment (R)
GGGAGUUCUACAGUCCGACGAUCCUUCCACUCAAAUCUGCUCAGGUUUGUUAUGCAGCGAUUGUGGCUGUCCGCUGUAUCUCCUCUGUGGGAGUAAACGCCACACUGUGUUUGUGAGUUCAGCACAGGGCCCAUGGAAUUCUCGGGUGCCAA	0.317
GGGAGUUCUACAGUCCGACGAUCUACUAACCAAAGGGGCUUCCUUGUCAGGGCCUGGUGGAGUUGGUGGGUCAUCGGGGCUCACUGCCUCCUGCCCUUCUCUCCUGUCUGACCCCCACUUAGCCCUUCUCUCCUGGAAUUCUCGGGUGCCAA	0.43
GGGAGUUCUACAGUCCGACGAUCGUAUUCUGCAUAUGGGCUGGCUUUGGUGAAGCUGAUGACUGGACUUCUAAGAACCGUUUUCCCAAAUGGGUUCCCAUAUUCAUGCACCCAAAGCAAUGGUCCCCAAGCACUGGAAUUCUCGGGUGCCAA	0.774
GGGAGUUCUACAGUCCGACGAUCGGGGAGUGGAGGGUGGCCGGGCAGGUCCUGCCGGCGCAGGGAGCCCUCUGCCCUUCACACUCUCCUCCAAAAGAGCCUCCAUCUGUAAGGAAGCAGGUCUCCGCGAGGGGUGGAAUUCUCGGGUGCCAA	0.204
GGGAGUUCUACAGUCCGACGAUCGGCCUUGCUGCCAUUCCAGUCACGCACUCCUUGUCCCUGUCUCGCAUGGAGAUCAAAGAAAUAGCAAGCAGGACCCGCAGGGAACUACUGGGCCUCUCGGAUGAAGGUGGUGGAAUUCUCGGGUGCCAA	0.554
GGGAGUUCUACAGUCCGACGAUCGCCAUGCCCCCAGCACCUUGCACAUAGGUGUCUGAUAAAAGUUUAAGAAAGUAAACACUUUUUGAGCACCAAAUAUAUAUAGGGCAUUGUUCUGGUGGGUGUGUCACGCUUGGAAUUCUCGGGUGCCAA	0.418
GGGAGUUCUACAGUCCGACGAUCUAGCCGGUUAUCUAGACCAGUAAGUGGAGUUUUGGACAUGCUGCUGCUGUCAACUCACUGGCUGAAGGAGCACUUCAAGGAAUGGGAGGCCUUUCACUGGGUCCAGCUCUUGGAAUUCUCGGGUGCCAA	0.33
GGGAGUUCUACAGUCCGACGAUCUUUUCAACCAGUAUAUCACUAAAAGUUAUAUCAAAGCUUUAUCAGUUCAAGUUUCUUGCUUUUCAUAAUACUUUUUUCUGAUGCAAUUUUAUAUUUUCAAACAUGGCAAGUGGAAUUCUCGGGUGCCAA	0.616
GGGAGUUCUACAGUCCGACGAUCCAUACCAUCCACAUCAGAAUCCCUUGUAGGAUUUUCUAAAAUUACAGAUUGUUGAGCCUACCAUAGGUCAAAAGGACUGGAAUUUUCCUUCUUAACAAGUAUAGUCAUGGUGGAAUUCUCGGGUGCCAA	0.636
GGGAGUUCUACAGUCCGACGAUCUCUGGAGCGCCCCCGUCAGCCCCUGGCGGUGGGAGGUGAGAGCGAGUGGUUUAAGUGCCUGAUUACCACCACCCGCCCCCCCCUUUGUCCAGCUGGGACACGGAAUGGCCUGGAAUUCUCGGGUGCCAA	2.44
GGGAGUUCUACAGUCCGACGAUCUACAGGUGGAUAGGGAUGCAGGGGCAGCCUUUCCCCGGGAAUCUGACUGGUCCGCACAACACACCCACUGCUCAGUUUCCUGAGAAGAGAGAUCUCAAGACAUUUUAAUAUGGAAUUCUCGGGUGCCAA	0.55
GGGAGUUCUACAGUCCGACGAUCAGACCUGGCUUUCAUGCUUCCUUAGACACGGCCUCCCUCGACUUACUUGCCUUGAAGAAGAAAGGCGCUGACACGCUUAACGCAAACAGAAGGUCCACAAAUAGCAGUUCUGGAAUUCUCGGGUGCCAA	0.685

Series 2 — technique: protein-binding microarray; form: double-stranded DNA, one strand shown; matrix: in vitro; tested at: 2540 nM top; setting: 60-bp whole probe; together with: salmon DNA 0.4 mg/ml; reference: random background probes; direction: higher = stronger binding; shared flanks, not repeated: GCCTAGCAC … GTCTTGATTCGCTTGACGCTGCTG
Target: Interferon regulatory factor 3, full length, phosphomimetic (IRF3, Homo sapiens, UniProt Q14653, residues 1-427, S386D/S396D/S398D/S402D/T404D/S405D)
Chain of UniProt Q14653 (whole entry, unmodified, looked up): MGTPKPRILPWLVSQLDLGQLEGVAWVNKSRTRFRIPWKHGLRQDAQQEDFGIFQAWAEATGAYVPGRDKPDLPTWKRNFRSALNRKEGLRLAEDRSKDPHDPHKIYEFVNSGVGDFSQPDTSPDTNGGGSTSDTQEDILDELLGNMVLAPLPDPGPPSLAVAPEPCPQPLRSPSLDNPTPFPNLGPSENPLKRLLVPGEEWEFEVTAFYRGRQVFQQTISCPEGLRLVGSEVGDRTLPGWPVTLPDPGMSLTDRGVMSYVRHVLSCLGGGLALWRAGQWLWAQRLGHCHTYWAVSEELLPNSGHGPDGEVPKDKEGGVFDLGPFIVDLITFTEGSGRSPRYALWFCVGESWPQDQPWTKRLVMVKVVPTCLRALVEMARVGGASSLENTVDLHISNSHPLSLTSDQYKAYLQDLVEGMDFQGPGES
Strand	fitted relative affinity [z-score]
TTAGGTTCACTTTTCCTTTAGTGCTAG	3.94
TCATTCTTGGGACTCACACTGTGCTAG	1.32
TCAACTTTCTTAATGCTACTGTGCTAG	1.56
TTAGGTATCGACTCTGGGTTAGTGCTA	0.651
GACGGAATCCTACTGCTGACGTGCTAG	0.583
GACGGTTTCGACTTGCGGGACGTGCTA	3.52
CATCATTGCCTATTTTTCACCGTGCTA	0.514
CTAGATATCAGTTTCGATTAGTGCTAG	4.97
TCAGAACTGAGTCTCGATTAGTGCTAG	0.0658
GACGGGTCCGGTTTCGGGACGTGCTAG	3.17
GTCGGTATCGGGACTGGGGACGTGCTA	2.91
TCAAATTCCAAGTTCATACTGTGCTAG	0.954
TCAGATTTCCATTATTGACTGTGCTAG	2.75
GACGATATCGGAACTGGAGACGTGCTA	1.36
GACGATCTCAGTTTCGAGAGGTGCTAG	1.87
TCACATACTGATTTCCAACTGTGCTAG	1.26
GACGAACGGAGTTTCGAGACGTGCTAG	1.41
CTAGGTATCCTTCTCCTTTAGTGCTAG	6.9
AACGAACTGAGTATCGAGACGTGCTAG	0.00392
TCATCTAAAAAGTCTCTGACTGTGCTA	0.0562
GACGATATCATTATCGAGACGTGCTAG	1.12
TTAGGTATCGGGACTAGGTTAGTGCTA	1.15
TCATTTCTCAAATGTTTTACTGTGCTA	2.35
AGAGATTTCAGGAATTGAAAAGTGCTA	-0.223
TACGGACTGGACACTGGGGACGTGCTA	-0.593

Series 3 — technique: universal PBM; form: double-stranded DNA, one strand shown; matrix: in vitro; tested at: 600 nM; direction: higher = stronger binding
Target: Sal-like protein 4, full length isoform A (SALL4, Homo sapiens, UniProt Q9UJQ4, residues 1-1053)
Chain of UniProt Q9UJQ4 (whole entry, looked up): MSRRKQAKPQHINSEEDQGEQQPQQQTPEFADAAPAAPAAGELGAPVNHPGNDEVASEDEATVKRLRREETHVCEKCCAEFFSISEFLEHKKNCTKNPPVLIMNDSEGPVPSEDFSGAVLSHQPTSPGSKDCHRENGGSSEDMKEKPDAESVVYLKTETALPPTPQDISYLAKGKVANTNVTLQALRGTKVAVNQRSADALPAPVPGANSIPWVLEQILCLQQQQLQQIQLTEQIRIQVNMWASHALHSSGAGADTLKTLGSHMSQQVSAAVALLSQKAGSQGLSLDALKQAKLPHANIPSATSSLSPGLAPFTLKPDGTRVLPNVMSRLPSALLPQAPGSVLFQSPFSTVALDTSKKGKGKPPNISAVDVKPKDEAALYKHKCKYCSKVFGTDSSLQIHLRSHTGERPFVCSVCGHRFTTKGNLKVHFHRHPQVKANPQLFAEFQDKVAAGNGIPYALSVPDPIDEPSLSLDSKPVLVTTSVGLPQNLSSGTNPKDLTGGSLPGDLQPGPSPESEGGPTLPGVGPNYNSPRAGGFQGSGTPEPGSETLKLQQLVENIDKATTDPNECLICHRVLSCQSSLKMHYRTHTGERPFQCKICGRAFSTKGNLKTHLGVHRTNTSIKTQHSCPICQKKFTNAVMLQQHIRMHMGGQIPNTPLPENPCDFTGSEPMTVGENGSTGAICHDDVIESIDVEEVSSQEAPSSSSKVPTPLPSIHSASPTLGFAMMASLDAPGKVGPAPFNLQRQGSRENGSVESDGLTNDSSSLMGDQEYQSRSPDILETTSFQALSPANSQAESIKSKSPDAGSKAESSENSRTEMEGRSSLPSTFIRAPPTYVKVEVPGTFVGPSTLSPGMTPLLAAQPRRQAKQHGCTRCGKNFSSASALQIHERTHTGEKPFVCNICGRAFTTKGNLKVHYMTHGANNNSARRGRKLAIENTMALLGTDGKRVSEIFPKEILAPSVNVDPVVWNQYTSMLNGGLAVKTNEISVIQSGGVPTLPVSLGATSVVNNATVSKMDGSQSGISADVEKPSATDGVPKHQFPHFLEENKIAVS
Setting: 8-mer, flanks averaged, mean of replicates
Strand	E-score
ACCCTACG	-0.122
AACGGCGT	-0.041
GGTTCTTA	0.057
TAGCATAA	0.261
ATGCTGAC	0.0867
CCACTAAA	-0.00392
AACAGGGG	-0.187
AGATGGGC	-0.24
AGCTTGTG	-0.0798
AGGTGAAA	0.129
CGATATCC	-0.00135
GATAAGCA	0.141
CCACGTTA	0.164
TCAACTGA	0.117
CATCCTCC	-0.174
ATGACTCG	0.0464
AGTAGGCC	-0.264
CGTGTTTC	-0.0439
ACGAGCAC	-0.0787
ATTATCGG	0.119
CAAAACCG	-0.0701
TGATAGCA	0.146
CGATGGGA	-0.119
CCCCATTA	-0.0249
ATTCCTTA	0.0922

Series 4 — technique: protein binding microarray; form: double-stranded DNA, one strand shown; matrix: in vitro; tested at: not given; reference: not given; direction: higher = stronger binding
Target: Histone acetyltransferase KAT6A, winged helix 1, GST fusion (KAT6A, Homo sapiens, UniProt Q92794, residues 1-85)
Setting: 8-mer, flanks averaged, mean of 2 arrays, mostly near background
Construct (chain): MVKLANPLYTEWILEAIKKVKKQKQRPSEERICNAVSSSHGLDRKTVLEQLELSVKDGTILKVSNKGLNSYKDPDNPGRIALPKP
Strand	E-score
AGCTGGAG	-0.246
TTTGAAAA	-0.117
AGCGCAAA	0.141
CTGATTCA	-0.111
GTTTCTTA	-0.0761
CGGGAATA	0.277
GGGGTGGA	-0.0891
GCGACCGC	0.374
CCTACACA	-0.107
ACATGCCC	-0.00313
AGAACAAA	0.00455
ATTCAGCG	0.129
AGAAGAGA	-0.134
GTTGACTA	0.000595
CAAGATGC	-0.221
GGATTTCA	-0.0937
CACCGTCA	0.222
GCGACCAA	0.0491
ATGTGTCC	0.0388
ACAAGAAC	-0.0948
AGACGGTA	0.133
CTCCGTTC	0.119

Some of these lines once more (series 2):
Strand	fitted relative affinity [z-score]
AACGAACTGAGTATCGAGACGTGCTAG	0.00392
AGAGATTTCAGGAATTGAAAAGTGCTA	-0.223
TCAACTTTCTTAATGCTACTGTGCTAG	1.56
TCAGAACTGAGTCTCGATTAGTGCTAG	0.0658
TACGGACTGGACACTGGGGACGTGCTA	-0.593
TCAAATTCCAAGTTCATACTGTGCTAG	0.954
TCACATACTGATTTCCAACTGTGCTAG	1.26
GACGATATCGGAACTGGAGACGTGCTA	1.36
TTAGGTATCGGGACTAGGTTAGTGCTA	1.15
CATCATTGCCTATTTTTCACCGTGCTA	0.514
TTAGGTTCACTTTTCCTTTAGTGCTAG	3.94
GACGGGTCCGGTTTCGGGACGTGCTAG	3.17
